Assay results from different studies.
Parts stem from different laboratories: compare values within a part only.

Sample 1
Target: Sal-like protein 4, full length isoform A (SALL4, Homo sapiens, UniProt Q9UJQ4, residues 1-1053)
UniProt Q9UJQ4, sequence (whole entry, looked up): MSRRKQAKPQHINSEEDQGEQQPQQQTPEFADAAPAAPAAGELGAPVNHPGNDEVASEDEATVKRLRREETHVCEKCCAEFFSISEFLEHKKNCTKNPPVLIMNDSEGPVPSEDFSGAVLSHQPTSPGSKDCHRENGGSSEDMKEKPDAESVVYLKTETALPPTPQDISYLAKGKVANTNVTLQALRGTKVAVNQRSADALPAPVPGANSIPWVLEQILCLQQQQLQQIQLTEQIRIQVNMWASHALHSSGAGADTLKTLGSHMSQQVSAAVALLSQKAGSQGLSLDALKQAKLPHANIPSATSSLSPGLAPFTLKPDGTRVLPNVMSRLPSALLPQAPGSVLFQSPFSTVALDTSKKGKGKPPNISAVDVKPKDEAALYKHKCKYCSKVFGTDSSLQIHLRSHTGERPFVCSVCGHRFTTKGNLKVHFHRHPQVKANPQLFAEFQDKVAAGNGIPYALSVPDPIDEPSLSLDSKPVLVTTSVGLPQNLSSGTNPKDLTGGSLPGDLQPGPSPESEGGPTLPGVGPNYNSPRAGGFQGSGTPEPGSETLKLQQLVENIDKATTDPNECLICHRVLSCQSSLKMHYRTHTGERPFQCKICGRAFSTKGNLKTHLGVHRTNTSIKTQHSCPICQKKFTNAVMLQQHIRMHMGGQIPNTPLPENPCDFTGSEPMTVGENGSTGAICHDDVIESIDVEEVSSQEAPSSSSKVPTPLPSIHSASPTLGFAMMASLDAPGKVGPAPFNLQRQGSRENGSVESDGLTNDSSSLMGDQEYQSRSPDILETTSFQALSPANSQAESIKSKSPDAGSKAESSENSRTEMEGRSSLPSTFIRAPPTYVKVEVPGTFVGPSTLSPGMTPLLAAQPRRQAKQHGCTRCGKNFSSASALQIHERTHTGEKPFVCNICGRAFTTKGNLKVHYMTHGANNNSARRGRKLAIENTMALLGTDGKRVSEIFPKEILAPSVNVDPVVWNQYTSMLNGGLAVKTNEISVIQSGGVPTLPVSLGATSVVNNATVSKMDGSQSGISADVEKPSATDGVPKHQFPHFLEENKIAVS
Technique: universal PBM
Molecule type: double-stranded DNA, one strand shown
Matrix: in vitro
Concentration: 600 nM
Setting: 8-mer, flanks averaged, mean of replicates
Direction: higher = stronger binding
Sequence	E-score
CACTGAAC	0.0599
AGGTGATA	-0.0114
AATCGCGC	-0.0508
ACGGCCCG	-0.189
TCCGACGA	-0.00409
TCAATTAA	0.278
CCGGAAGG	-0.199
AAGCTACG	-0.0605
ATTTACCC	0.087
ATCACGAG	-0.0281
GCTTCCGA	-0.0475
CTGCATAC	0.0722
CATGCATC	-0.00458
ATCCCTCG	-0.168
AACAAGGG	-0.0474
AAGGTTTA	0.0619

Sample 2
Target: RING finger protein unkempt homolog, zinc fingers 1-6, GST-SBP tag (UNK, Homo sapiens, UniProt Q9C0B0, residues 30-357)
UniProt Q9C0B0, sequence (30-357, looked up): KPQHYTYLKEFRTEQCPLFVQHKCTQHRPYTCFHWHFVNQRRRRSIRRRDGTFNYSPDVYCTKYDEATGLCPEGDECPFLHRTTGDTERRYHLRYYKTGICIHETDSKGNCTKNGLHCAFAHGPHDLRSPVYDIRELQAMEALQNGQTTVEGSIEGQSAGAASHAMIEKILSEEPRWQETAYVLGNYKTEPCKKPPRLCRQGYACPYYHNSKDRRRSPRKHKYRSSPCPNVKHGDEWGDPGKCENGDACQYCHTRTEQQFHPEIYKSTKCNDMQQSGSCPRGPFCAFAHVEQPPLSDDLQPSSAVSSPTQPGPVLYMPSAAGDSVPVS
Technique: RNA Bind-n-Seq
Molecule type: RNA
Matrix: in vitro
Concentration: not given
Setting: RNA with constant flanks, human-mouse chimeric sites, ends assumed
Reference: input RNA pool
Direction: higher = stronger binding
Sequence	bound/input enrichment [ratio]
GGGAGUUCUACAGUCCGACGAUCUAUAUCACCAAUGUUCUACAAAAUCCUGACUUGGCUCUGAGAAUGGCUGUGCGGAACAACUUAGCUGGUGCUGAAGAACUCUUUGCCCGGAAAUUUAAUGCUCUUUUCGCCCAGGGAAACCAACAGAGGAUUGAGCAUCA	0.189
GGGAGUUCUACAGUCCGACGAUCACCAUUUUCGCGGUUCAGGCUUUGUGUGUAGUUCACUUACGGUAUUAAAUUAUUAUUGCCCUUAGUUUAUAAUAAGGAUAAUUGCAUUUAAAGAGGUGAUCACUGAAUACUCUGAAACUUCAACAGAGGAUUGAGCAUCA	1.05
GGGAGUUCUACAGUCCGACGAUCUGUGCAUUAUGAUGCUUAGAUGGUUUUUGCAAAAGCAGAAAUCGCUGCAAGGUCAUUACAAUAGAUAAAAGUGGUAUUUUAAACCUUUGAAAUAAAUGGAUGUAACUGUACCUUGGUACACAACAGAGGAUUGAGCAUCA	0.536
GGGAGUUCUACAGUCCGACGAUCCAUGUAUCUGCAGUACUUGAUGUGGACUACUCUCCCACUGGGAAGGAAUUUGUGUCUGCCAGCUUUGAUAAGUCUAUUAGAAUCUUUCCUGUGGACAAGAGCCGAAGCAGGGAGGUAUAUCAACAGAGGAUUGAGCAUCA	0.471
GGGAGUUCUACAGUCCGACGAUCACCAUUUUCGCGGUUCAGGCUUUGUGUUGUAUUUACUUACGGUAUUAAAUUAUUAUUCUGCUUAGCUUAUAAUAAGGAUUACAAUUGUUAAAGAGGUUACUGAAUGUUACUCUGAAACUUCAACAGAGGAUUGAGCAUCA	0.542
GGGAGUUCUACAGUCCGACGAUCAUGGAACAUUUUGAUGCGUCACUCAGUACCUAUUUCAAGGCCUUCCUGGGCCCCCGAGAUACUAGAGUCAAAGGAUGGUUCCUCCUGGACAAUUACAUCCCUACGUUUGUCUGUUCUGUUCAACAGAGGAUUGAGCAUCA	0.109
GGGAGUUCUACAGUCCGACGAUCGUUCGACUCUGGGAUCAUGCUACUAUGACAGAAGUGAAAUCUCUGAAUUUUAAUAUGUCUGUUAGCAGCAUGGAGUAUAUUCCUGAAGGAGAGAUUUUGGUUAUUACUUAUGGACGAUCUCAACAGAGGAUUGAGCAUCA	0.186
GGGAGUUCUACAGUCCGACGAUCAAAGAAUGGAUAGAAUGUGCACACGGGAUCGGUGGGACCCGGGCGAAAAAGGAGUGCAAGAUAGAGUUCGAUGACUUCGAAGAGUGCUUGCUUCGGUACAAAACGAUGAGGCGAAUGCAUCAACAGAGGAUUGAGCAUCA	0.589

Sample 3
Target: Histone acetyltransferase KAT6A, winged helix 1, GST fusion (KAT6A, Homo sapiens, UniProt Q92794, residues 1-85)
Technique: protein binding microarray
Molecule type: double-stranded DNA, one strand shown
Matrix: in vitro
Concentration: not given
Setting: 8-mer, flanks averaged, mean of 2 arrays, mostly near background
Reference: not given
Direction: higher = stronger binding
Target sequence (chain): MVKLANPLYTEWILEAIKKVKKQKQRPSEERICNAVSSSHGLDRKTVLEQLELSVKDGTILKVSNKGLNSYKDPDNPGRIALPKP
Sequence	E-score
AAATATGC	-0.159
AAATAATG	-0.181
GAAAATTC	0.0891
AGTCGGCC	0.102
CGCTCTAG	0.216
TCAGTACA	-0.247
CATGGTGG	-0.0928
CCTATAAA	-0.123
CCGTCTAC	0.246
GTATCACA	-0.0481
ACTAGTTG	-0.228
GCAGAGCC	0.0339
AACCTACG	0.0343
TGTATTAA	-0.058
GCACGAAA	-0.0716
GTCGAATA	-0.0888
GACTACAA	-0.0777
AAGGGGGT	-0.0856
AGCCGTTC	0.285
CCTTGAAC	-0.0418
ATGAGATC	-0.183
ATCCGTTG	0.0603
AAAATACG	-0.0446
AAGAAGGC	0.0536
GGGACCTA	0.151

Sample 4
Target: Interferon regulatory factor 5, full length, phosphomimetic (IRF5, Homo sapiens, UniProt Q13568-2, residues 1-514, S451D/S453D/S456D/S462D)
Technique: protein-binding microarray
Molecule type: double-stranded DNA, one strand shown
Matrix: in vitro
Concentration: 940 nM top
Setting: 60-bp whole probe
Added: salmon DNA 0.4 mg/ml
Reference: random background probes
Direction: higher = stronger binding
All sequences stand within: GCCTAGCAC … GTCTTGATTCGCTTGACGCTGCTG
Sequence	fitted relative affinity
GACGGTCTAGGACTGGGGACGTGCTAG	-0.282 z-score
TTAGGTTGCCTTTTCCTTTAGTGCTAG	0.478 z-score
GACAACTGATATCAAAGGGAGTGCTAG	-0.246 z-score
TTAGATAACAGTCTCGATTAGTGCTAG	2.55 z-score
TTAGAAGTGGGGTTTCGATTAGTGCTA	5.3 z-score
GTCGGTATCCTACTGCTGACGTGCTAG	0.4 z-score
TTAGATATCAATATCGATTAGTGCTAG	0.375 z-score
CTAATATTCATTTTATTCAAGTGCTAG	0.411 z-score
TTAGGACTGCTTCTCATTTAGTGCTAG	-0.124 z-score
AACGATTTCAGTCTCGAGACGTGCTAG	2.07 z-score
TCACATGTCTGTGTCACACTGTGCTAG	0.192 z-score
GACGGGCTGGGACTGGGGACGTGCTAG	-0.297 z-score
CTTTTTATGCTTTCTTTAACTGTGCTA	1.51 z-score
GACGGACTGGACTTTCGGGTCGTGCTA	1.22 z-score
TCATTCCTCTTTCTCTGACTGTGCTAG	1.54 z-score
GGGTGTGTGAGTGTGTGTGCGTGCTAG	0.141 z-score
TTAGGACTGCTACTGCATTAGTGCTAG	-0.287 z-score
TTAGAACTGAGTCTCGCTTAGTGCTAG	1.14 z-score
GACGATAGCAGTTTCGAGACGTGCTAG	3.26 z-score

Some of these lines once more (sample 4):
Sequence	fitted relative affinity
GGGTGTGTGAGTGTGTGTGCGTGCTAG	0.141 z-score
TTAGGACTGCTACTGCATTAGTGCTAG	-0.287 z-score
TTAGAACTGAGTCTCGCTTAGTGCTAG	1.14 z-score
GACGATAGCAGTTTCGAGACGTGCTAG	3.26 z-score
